Published values collected from several papers.
A part holds a random share of what one study measured. Positions count from the first letter of the parent shown.

Block 1
Target: Histone acetyltransferase KAT6A, winged helix 1, GST fusion (KAT6A, Homo sapiens, UniProt Q92794, residues 1-85)
Method: protein binding microarray
Form: double-stranded DNA, one strand shown
Matrix: in vitro
Tested at: not given
Notes: 8-mer, flanks averaged, mean of 2 arrays, mostly near background
Baseline: not given
Reading: higher = stronger binding
Construct (chain): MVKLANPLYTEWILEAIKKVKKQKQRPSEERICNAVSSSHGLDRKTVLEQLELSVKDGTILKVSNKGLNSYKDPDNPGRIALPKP
Oligonucleotide | E-score
ACACGGAG | 0.241
AGGCCAAG | -0.124
CTAAAATC | -0.148
CGACTCGA | -0.139
CCCGATTA | 0.16
AAACTCCT | -0.0839

Block 2
Target: Fragile X messenger ribonucleoprotein 1, C-terminal low-complexity region (Fmr1, Mus musculus, UniProt P35922)
Method: RNA Bind-n-Seq
Form: RNA
Matrix: in vitro
Tested at: 200 nM
Notes: whole 134-nt RNA, ends assumed
Together with: 150 mM LiCl
Baseline: input library
Reading: higher = stronger binding
Each molecule: 7-deaza-guanosine replaces G
Oligonucleotide | log2 enrichment
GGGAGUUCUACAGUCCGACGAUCGUCCUGUGCUACACAUCGUAUGUACCGAAUCGGAAAAAGGGGAAAAAGGAAAAAGGGGAAAGUAUUAUGUUACGCCGUUCGGAUCUGCACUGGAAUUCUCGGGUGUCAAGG | 0.314
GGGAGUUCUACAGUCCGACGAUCCUGUGCUACACAUCGUAUGUACCGAAUCGGGAAAAAAAGGGGAAAAAAAGGGAAAAAAAGGAAAGUAUUAUGUUACGCCGUUCGGAUCUGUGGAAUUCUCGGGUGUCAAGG | 0.237
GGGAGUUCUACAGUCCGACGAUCGUCCUGUGCUACACAUCGUAUGUACCGAAUCAAAUUUUUAAAUUUUUUUAAAUUUAAAAAAGUAUUAUGUUACGCCGUUCGGAUCUGCACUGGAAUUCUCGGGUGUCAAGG | -3.23
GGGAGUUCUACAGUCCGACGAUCCCUGUGCUACACAUCGUAUGUACCGAAUCGGGAAAAAAAGGGGAAAAAAAGGAAAAAAAGGAAAGUAUUAUGUUACGCCGUUCGGAUCUGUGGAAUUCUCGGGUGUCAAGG | 0.0902
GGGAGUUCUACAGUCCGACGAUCAAGUCCUGUGCUACACAUCGUAUGUACCGAAUCGGUUUUGGUUUUGGGUUUUGGGGAAAGUAUUAUGUUACGCCGUUCGGAUCUGCACUUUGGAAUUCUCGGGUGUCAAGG | -1.56
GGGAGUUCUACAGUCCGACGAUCCUGUGCUACACAUCGUAUGUACCGAAUCGGGUUUUUUUGGGGUUUUUUUGGUUUUUUUGGGGAAAGUAUUAUGUUACGCCGUUCGGAUCUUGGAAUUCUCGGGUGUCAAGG | 0.973
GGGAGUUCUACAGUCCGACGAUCUCCUGUGCUACACAUCGUAUGUACCGAAUCAAAUUUUUUUAAACCCAAAUUUUUUUAAAAAAGUAUUAUGUUACGCCGUUCGGAUCUGCAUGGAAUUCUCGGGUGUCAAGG | -2.14
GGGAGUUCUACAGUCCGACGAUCCAAGUCCUGUGCUACACAUCGUAUGUACCGAAUCGGGGUGGGGUUUGGGGUGGGGAAAGUAUUAUGUUACGCCGUUCGGAUCUGCACUUCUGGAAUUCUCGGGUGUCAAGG | -0.539

Mixed results
P1: CDC6 docking peptide (human); TLKGRRLVFDNQL; partner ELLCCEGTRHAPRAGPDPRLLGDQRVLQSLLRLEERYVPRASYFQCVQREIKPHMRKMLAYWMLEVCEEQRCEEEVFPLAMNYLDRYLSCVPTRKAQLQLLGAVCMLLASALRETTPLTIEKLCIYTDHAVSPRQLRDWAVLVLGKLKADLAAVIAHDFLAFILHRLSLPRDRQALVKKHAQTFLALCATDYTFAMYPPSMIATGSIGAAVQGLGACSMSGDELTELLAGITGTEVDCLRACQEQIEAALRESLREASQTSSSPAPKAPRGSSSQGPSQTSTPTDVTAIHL
P2: PKN2 docking peptide (human); VSAVQKLDFSDTM; partner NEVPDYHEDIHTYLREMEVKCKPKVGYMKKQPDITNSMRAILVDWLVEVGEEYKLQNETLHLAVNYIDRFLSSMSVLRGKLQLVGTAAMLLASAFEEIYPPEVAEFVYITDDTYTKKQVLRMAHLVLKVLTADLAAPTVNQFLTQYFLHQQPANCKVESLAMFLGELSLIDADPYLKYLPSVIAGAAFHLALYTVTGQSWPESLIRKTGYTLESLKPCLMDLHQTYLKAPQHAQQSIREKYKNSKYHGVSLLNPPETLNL
P3: E2F2 docking peptide (human); LPAKRKLDLEGIG
P4: SCAPER docking peptide (human); SNARRSLNFGGST; partner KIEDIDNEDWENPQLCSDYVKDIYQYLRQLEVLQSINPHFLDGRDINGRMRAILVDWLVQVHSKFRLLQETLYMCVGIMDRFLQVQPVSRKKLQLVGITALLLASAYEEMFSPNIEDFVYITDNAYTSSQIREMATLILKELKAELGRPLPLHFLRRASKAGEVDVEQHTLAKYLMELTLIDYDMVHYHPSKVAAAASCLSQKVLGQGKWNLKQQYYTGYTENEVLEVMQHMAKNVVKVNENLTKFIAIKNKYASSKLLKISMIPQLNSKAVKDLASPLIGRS
Molecule | target | assay | system | setting | scale | measurement | result
P1 D10M | CCND3, cyclin fold, Cln2 fusion (human) | yeast growth competition, sequencing | yeast | weak parent motif | baseline: not given, higher = stronger binding | normalised enrichment score | 0.118
PhoQ, residues 284 288 289 292 302 303 SLANKL | PhoP, residues 12 14 15 18 19 QQAYL (Escherichia coli, UniProt P23836) | Sort-seq, item: YFP reporter | E. coli | PhoQ-PhoP variant library, together with: 10 µM Mg2+ | baseline: high Mg2+ state, higher = stronger signaling | fold induction | 6.17
P2 L7V | CCNA2, cyclin fold, Cln2 fusion (human) | yeast growth competition, sequencing | yeast | strong parent motif | baseline: not given, higher = stronger binding | normalised enrichment score | -0.318
P3 L9A | CCNB1, cyclin fold, Cln2 fusion (human) | yeast growth competition, sequencing | yeast | weak parent motif | baseline: not given, higher = stronger binding | normalised enrichment score | 0.183
P4 G11E | CCNB2, cyclin fold, Cln2 fusion (human) | yeast growth competition, sequencing | yeast | weak parent motif | baseline: not given, higher = stronger binding | normalised enrichment score | -0.471

A few entries again (block 2):
Oligonucleotide | log2 enrichment
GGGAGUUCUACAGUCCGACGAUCCCUGUGCUACACAUCGUAUGUACCGAAUCGGGAAAAAAAGGGGAAAAAAAGGAAAAAAAGGAAAGUAUUAUGUUACGCCGUUCGGAUCUGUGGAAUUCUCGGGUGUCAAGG | 0.0902
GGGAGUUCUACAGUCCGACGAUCCUGUGCUACACAUCGUAUGUACCGAAUCGGGUUUUUUUGGGGUUUUUUUGGUUUUUUUGGGGAAAGUAUUAUGUUACGCCGUUCGGAUCUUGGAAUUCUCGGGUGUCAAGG | 0.973
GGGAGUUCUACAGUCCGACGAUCGUCCUGUGCUACACAUCGUAUGUACCGAAUCAAAUUUUUAAAUUUUUUUAAAUUUAAAAAAGUAUUAUGUUACGCCGUUCGGAUCUGCACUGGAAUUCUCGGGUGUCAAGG | -3.23
